Measurements of several laboratories.
Each numbered part is a random draw from the data of one study; scales do not carry over between parts. Changes are numbered by the printed parent chain.

Study 1 — target: CCND1, cyclin fold, Cln2 fusion (human); method: yeast growth competition, sequencing; medium: yeast; notes: weak parent motif; relative to: not given; direction: higher = stronger binding
Starting sequence: MICAL3 docking peptide (human); LQLRRQLSFSEDS; partner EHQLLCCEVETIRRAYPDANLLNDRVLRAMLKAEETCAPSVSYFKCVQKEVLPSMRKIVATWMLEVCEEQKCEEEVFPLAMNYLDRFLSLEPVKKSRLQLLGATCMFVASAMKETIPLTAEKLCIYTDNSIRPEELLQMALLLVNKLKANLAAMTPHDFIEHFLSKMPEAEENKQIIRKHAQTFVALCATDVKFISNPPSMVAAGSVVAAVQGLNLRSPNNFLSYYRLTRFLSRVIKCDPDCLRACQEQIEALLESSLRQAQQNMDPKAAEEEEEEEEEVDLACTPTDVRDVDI
Variant | normalised enrichment score
S8T | 0.213
D12C | 0.907
Q2W | 0.0492
L3G | 0.332
R4N | 0.356
R5F | -0.367
S8A | -0.269
Q6M | 0.268
E11T | 0.203
R5N | 0.296
L3R | 0.239
E11H | 0.0118
L3N | -0.0641
R5D | 0.136
S10C | 0.461
E11L | 0.306
R4F | 0.221
S8N | 0.203
L7Y | 0.0398
L7N | -0.0301
L3S | 1.12
Q6H | 0.0836
R4Q | 0.289
R4Y | 0.546
L7D | 0.0123

Study 2 — method: RNA Bind-n-Seq; form: RNA; medium: in vitro; concentration: 1 µM; notes: whole 134-nt RNA, ends assumed; added: 150 mM KCl; relative to: input library; direction: higher = stronger binding
Target: Ras GTPase-activating protein-binding protein 1, RRM domain (G3BP1, Homo sapiens, UniProt Q13283)
UniProt Q13283, sequence (whole entry, looked up): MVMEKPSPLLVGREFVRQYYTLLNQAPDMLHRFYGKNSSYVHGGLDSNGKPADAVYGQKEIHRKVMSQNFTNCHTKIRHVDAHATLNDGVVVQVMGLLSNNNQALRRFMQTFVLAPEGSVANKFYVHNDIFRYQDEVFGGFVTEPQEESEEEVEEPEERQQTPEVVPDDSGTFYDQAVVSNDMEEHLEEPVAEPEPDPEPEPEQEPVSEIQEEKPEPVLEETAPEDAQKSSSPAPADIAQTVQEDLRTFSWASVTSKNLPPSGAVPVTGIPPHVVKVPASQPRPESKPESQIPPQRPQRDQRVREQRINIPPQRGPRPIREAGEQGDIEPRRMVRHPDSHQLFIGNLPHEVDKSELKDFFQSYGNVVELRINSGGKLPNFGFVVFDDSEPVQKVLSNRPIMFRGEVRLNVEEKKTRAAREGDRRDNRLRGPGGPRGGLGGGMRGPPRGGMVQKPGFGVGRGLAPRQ
Oligonucleotide | log2 enrichment
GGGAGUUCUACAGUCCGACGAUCACCAUGCAAAAGGGCAUCUUUGGGAAGUGGGGCAAGGGGGGGAUAGGGAGGGGGGUAACACUUUGGGAACAGGUGGUCCCAGGUCGUUUCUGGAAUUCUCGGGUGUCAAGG | -0.367
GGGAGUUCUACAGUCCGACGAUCUGGGAGGUGGAUUUUGUUUAUUUUUUUAGCUCAUUUCCAGGGGUGGGAAUUUUUUUUUAAUAUGUGUCAUGAGUAAAGUUGUUUUUGAAAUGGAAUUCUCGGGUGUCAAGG | 1.35
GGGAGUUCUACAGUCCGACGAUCUGGCCCUGGUGGCAUGCGGGGAGGAAGAGGUGGCCUCAUGGAUCGUGGUGGUCCCGGUGGAAUGUUCAGAGGUGUCCGUGGUGGAGACAGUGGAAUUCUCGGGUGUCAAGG | 1.55
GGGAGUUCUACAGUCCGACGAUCUUAGGCACUUGUUGGGCUCAUCACCGUUGUGUGGAGUGGUCACUAGGAGUAUGCCAGAUGGAAGAACCAUUGUUAGUGAACGUGGACAAAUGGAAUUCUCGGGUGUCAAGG | -0.231
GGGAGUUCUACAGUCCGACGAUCCACAGACAACACGCACCCACACAGACACAGAGGGAAGGGGUUGAGAUGGGGACAGGGUGCACAGCAGGGCGGGGUAGGACCCCAGCCCCUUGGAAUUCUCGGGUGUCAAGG | -0.0306
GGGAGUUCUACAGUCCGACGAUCCUCAAGUCCUGUGCUACACAUCGUAUGUACCGAAUCGGUUUGGAGGAAAAAGGAAAGUAUUAUGUUACGCCGUUCGGAUCUGCACUUCCAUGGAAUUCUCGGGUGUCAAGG | -0.229
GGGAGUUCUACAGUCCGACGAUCCCUCAAGUCCUGUGCUACACAUCGUAUGUACCGAAUCGGGCCGGCCGGCCGGAAAGUAUUAUGUUACGCCGUUCGGAUCUGCACUUCCAGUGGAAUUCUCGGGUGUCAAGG | -0.509
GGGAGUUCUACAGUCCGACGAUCCCUGUGCUACACAUCGUAUGUACCGAAUCGGGGAAAAAAAGGGAAAAAAAGGAAAAAAAGGAAAGUAUUAUGUUACGCCGUUCGGAUCUGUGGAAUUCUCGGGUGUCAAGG | 0.0514
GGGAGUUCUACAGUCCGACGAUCUCAAGUCCUGUGCUACACAUCGUAUGUACCGAAUCGGGUUUGGGUUUGGGUUUGGAAAGUAUUAUGUUACGCCGUUCGGAUCUGCACUUCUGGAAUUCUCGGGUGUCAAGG | -0.426
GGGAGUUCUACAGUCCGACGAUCUCCUCAAGUCCUGUGCUACACAUCGUAUGUACCGAAUCGGGAGGGGAGGAGGAAAGUAUUAUGUUACGCCGUUCGGAUCUGCACUUCCAGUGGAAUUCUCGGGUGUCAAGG | -0.168

Study 3 — method: DHFR PCA, deep sequencing; medium: yeast; added: (+)-ABA 0.0091 µM; relative to: wild-type fitted maximum; direction: higher = stronger binding
Target: ABI1, truncated, D143A, DHFR fusion (Arabidopsis thaliana)
Notes: methotrexate growth selection, single substitutions
Starting sequence: PYL1, truncated, DHFR fusion (Arabidopsis thaliana); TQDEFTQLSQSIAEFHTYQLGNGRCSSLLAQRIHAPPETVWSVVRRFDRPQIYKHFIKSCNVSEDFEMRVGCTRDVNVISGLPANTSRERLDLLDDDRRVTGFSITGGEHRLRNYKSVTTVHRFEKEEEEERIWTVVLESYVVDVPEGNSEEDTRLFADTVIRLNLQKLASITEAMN; partner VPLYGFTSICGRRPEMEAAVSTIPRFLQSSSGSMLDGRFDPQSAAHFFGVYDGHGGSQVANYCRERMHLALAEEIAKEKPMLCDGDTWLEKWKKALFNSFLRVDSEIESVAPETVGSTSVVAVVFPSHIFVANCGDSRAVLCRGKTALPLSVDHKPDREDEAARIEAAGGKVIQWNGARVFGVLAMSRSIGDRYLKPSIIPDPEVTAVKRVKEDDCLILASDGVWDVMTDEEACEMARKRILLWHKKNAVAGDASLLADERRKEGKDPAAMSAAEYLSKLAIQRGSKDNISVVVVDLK
Variant | relative binding score [%]
V142E | 7.49
T73N | -1.55
G21K | 22.5
E109R | 2.58
V161H | 42.3
V118F | 0.485
E139G | -3.05
K58R | 18.8
R32V | 50
A158R | -3.99
T106L | 57.2
E128K | 14.7
V76R | -2.1
R98V | 5.67

Study 4 — method: RNA Bind-n-Seq; form: RNA; medium: in vitro; concentration: not given; notes: RNA with constant flanks, ends assumed; relative to: input RNA pool; direction: higher = stronger binding
Target: RING finger protein unkempt homolog, zinc fingers 1-6, GST-SBP tag (UNK, Homo sapiens, UniProt Q9C0B0, residues 30-357)
Construct (chain): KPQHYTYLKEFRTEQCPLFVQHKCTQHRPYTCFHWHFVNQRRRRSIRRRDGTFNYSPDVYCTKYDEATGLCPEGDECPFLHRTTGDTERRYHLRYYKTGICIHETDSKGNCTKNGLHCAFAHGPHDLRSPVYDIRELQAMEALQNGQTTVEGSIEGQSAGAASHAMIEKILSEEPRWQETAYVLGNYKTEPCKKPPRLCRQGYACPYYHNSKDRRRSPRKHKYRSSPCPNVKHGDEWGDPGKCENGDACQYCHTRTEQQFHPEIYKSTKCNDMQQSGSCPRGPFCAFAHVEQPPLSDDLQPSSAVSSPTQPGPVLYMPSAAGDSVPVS
Oligonucleotide | bound/input enrichment
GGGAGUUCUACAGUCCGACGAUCGACUUUGGAACUGGUCCUCGUAAUGCAGCCUACUAUAGCCCUCAUGGACAUAUAUCCGUAUCCGCUGGAUUUGGAAAUCUGAGGGGACAAAUGGAAGUGUGGGAUGUGAAAAACUACAAACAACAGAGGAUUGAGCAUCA | 0.0898 ratio
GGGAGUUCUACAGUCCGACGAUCCAAUCAAGCUACAGACAGUCGAGUCCAGGCGUGUGCAGCUGUGUGGAGGAUGCCCAAGGAAUCCGAAUCCGGUAGCCACGAGUCCCCUGACGACCCUGCAAGCACUGCUCAGACCCUGGACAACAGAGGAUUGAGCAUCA | 0.0652 ratio
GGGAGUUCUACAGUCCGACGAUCGCACGUACAGCCCUGAAUGCAGGUGCAGUUUGGGUUUUUUGUUUUGUUUUGUUUUGUUUUAUCCGCCAGUGGGCAAAGUGAAAUGUAAUUUUGGGUAAGCCAGGGCUACUUUAGCUUUUCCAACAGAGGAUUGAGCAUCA | 0.312 ratio
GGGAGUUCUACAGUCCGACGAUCGAGAGGAUUAGGUUCCAUCCUUUACGUGUUUAAAAAAAAGCAUAAAAACAUUUUAAAAACACCGAAAAAUUCAGCAAACCAUUUUUAAAGUAGAAGAGGGUUUUAGGUAGAAAAACAUAUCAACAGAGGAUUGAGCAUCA | 13.4 ratio
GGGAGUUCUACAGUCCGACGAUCUGAUUUGCAAGUGGGGGGGAAAGCUACUGUGAGCGUGUGUUUUAUUUUUUAAAUUACACUACCGAGUGAUUUCCCCCCCCCCCCAAUGUCAAGUUUUUACCCUGCAUGUACUGGAGUAUUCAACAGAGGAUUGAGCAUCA | 0.962 ratio
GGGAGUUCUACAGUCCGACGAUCAGUUUAAGCCUGACACACAGGCUUUGGUCCUCACUGAGCUGUCUCCAAGACUGGAACUACUCCGUGACUCGGCAAAUUUUCUGCCCCCCACCCCUCAUCAAAGCUGCUAGUUCAGAUGUUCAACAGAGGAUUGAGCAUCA | 1.5 ratio
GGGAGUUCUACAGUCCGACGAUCCACGCUGGUGCCCCGGAAGACGCCUCGCAAGAGGAGGAAUCUGUUCUCUGGACGAUAUUAAUCCGCAUUUUGAAACUGGUACUUGAAAUUCUCUUUUGAGUCGUUGACCACACUCUGGGACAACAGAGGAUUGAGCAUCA | 0.15 ratio
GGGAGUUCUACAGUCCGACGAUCAAGGUGAUAACCAUGUUUGUACAGCGACAGGUGUUUGCUGAGAACAAGGAUGAGAUUGCUUCCGUCCUGUUUGGUACAGAUGGCACUGACAAUCCCCUUUCUGGUGGGGAUCAGUAUCAGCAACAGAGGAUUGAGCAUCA | 0.0985 ratio

For quick reference, copied from above (study 4):
Oligonucleotide | bound/input enrichment
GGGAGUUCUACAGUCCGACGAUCGACUUUGGAACUGGUCCUCGUAAUGCAGCCUACUAUAGCCCUCAUGGACAUAUAUCCGUAUCCGCUGGAUUUGGAAAUCUGAGGGGACAAAUGGAAGUGUGGGAUGUGAAAAACUACAAACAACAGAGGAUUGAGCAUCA | 0.0898 ratio
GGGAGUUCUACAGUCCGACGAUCCAAUCAAGCUACAGACAGUCGAGUCCAGGCGUGUGCAGCUGUGUGGAGGAUGCCCAAGGAAUCCGAAUCCGGUAGCCACGAGUCCCCUGACGACCCUGCAAGCACUGCUCAGACCCUGGACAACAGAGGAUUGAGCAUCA | 0.0652 ratio
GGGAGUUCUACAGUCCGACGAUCGCACGUACAGCCCUGAAUGCAGGUGCAGUUUGGGUUUUUUGUUUUGUUUUGUUUUGUUUUAUCCGCCAGUGGGCAAAGUGAAAUGUAAUUUUGGGUAAGCCAGGGCUACUUUAGCUUUUCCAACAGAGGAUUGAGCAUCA | 0.312 ratio
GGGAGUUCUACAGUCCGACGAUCGAGAGGAUUAGGUUCCAUCCUUUACGUGUUUAAAAAAAAGCAUAAAAACAUUUUAAAAACACCGAAAAAUUCAGCAAACCAUUUUUAAAGUAGAAGAGGGUUUUAGGUAGAAAAACAUAUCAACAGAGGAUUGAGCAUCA | 13.4 ratio
